Earlier results, collected from citations in different studies.
Lines come from different studies, so protocols differ. Values after ≈ are worked out from the molar mass of the structure shown.

Cn1c(Cn2ccc(C(F)(F)F)c(Oc3cc(Cl)cc(C#N)c3)c2=O)n[nH]c1=O — selectivity index (HIV-1; IIIB wild type; reference: CC50 over EC50): > 36800
CO/N=C(\C(=O)N[C@@H]1C(=O)N2C(C(=O)O)=C(CSc3nc(=O)c(=O)[nH]n3C)CS[C@H]12)c1csc(N)n1 — MIC (Acinetobacter baumannii; OXA-225 producing): 64 µg/mL (≈ 115 µM)
NC(=O)c1ncn([C@@H]2O[C@H](CO)[C@@H](O)[C@H]2O)n1 — EC50 (respiratory syncytial virus A; viral replication, MTT; Long): 4.7 µM
Cc1ccc(C(C)C)cc1O — MIC90 (bacterial isolates; canine otitis externa, multidrug-resistant): 200 to 2290 µg/mL (≈ 1330 to 15300 µM)
Cc1nc2ccccc2c(O)c1CC=C(Cl)Cl — IC50 (Trypanosoma cruzi; Tulahuen C4 LacZ): 1.9 µM
CCC[C@H](NC(=O)[C@@H]1[C@H]2CCC[C@H]2CN1C(=O)[C@@H](NC(=O)[C@@H](NC(=O)c1cnccn1)C1CCCCC1)C(C)(C)C)C(=O)C(=O)NC1CC1 — cure rate (hepatitis C virus; HCV-infected patients; dose not given, with: ribavirin and pegylated interferon alpha): 60 to 80%
COc1ccc2sc(N(Cc3cccnc3)C(=O)c3ccc(C#N)cc3)nc2c1 — IC50 (Trypanosoma cruzi; Tulahuen C4 LacZ): 5.5 µM
interferon alpha — polymerase protein level (Norwalk virus; viral replication; HG23 Norwalk virus replicon cells; 20 units): decreased
CCOC(=O)c1c(C)n(-c2ccccc2)c2ccc(OC(=O)c3cc(OC)c(OC)c(OC)c3)cc12 — IC50 (Trypanosoma cruzi; Tulahuen C4 LacZ): 13.3 µM
NC(=O)c1nc(F)cnc1O — survival (Pichinde virus; hamster; 100 mg/kg/day, from day 4 or 5 post infection): 100%
